# Assay results pooled from the literature.
# Each numbered part is a random draw from the data of one study; scales do not carry over between parts. Changes are numbered by the printed parent chain.

# Sample 1
# Target: CCNB3, cyclin fold, Cln2 fusion (human)
# Technique: yeast growth competition, sequencing
# Medium: yeast
# Setting: weak parent motif
# Baseline: not given
# Direction: higher = stronger binding
# Starting sequence: SLBP docking peptide (human); ARYKRKLLINDFG; partner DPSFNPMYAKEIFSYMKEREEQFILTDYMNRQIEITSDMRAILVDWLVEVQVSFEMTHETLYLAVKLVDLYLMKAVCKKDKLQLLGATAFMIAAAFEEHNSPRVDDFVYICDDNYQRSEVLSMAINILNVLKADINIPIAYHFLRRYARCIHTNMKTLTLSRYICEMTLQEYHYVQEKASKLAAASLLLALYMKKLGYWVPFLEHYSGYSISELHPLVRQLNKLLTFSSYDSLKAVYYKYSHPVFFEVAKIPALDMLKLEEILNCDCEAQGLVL
Variant,normalised enrichment score
G13N,-0.307
K6R,-0.228
Y3E,0.528
D11W,0.0621
Y3Q,0.146
L7H,0.233
L7Y,0.283
D11P,1.06
Y3A,0.383
F12T,-0.503
I9A,-0.311
L7Q,-0.0227
A1V,0.321
R2F,-0.305
Y3P,0.141
G13A,-0.125
L8K,-0.812
F12Y,0.375
L8D,-0.0304
Y3L,0.47
L8E,0.554
K6P,0.435
K4H,0.348
R2T,0.667
A1S,0.346

# Sample 2
# Target: Sox-I, HMG box (Salpingoeca helianthica)
# Technique: Spec-seq
# Molecule type: double-stranded DNA, one strand shown
# Medium: in vitro
# Tested at: not given
# Setting: whole probe, mean of replicates
# Baseline: not given
# Direction: lower = stronger binding
# Shared flanks, not repeated: GAGTCGTCTCGTCAGCAC … CCGTAGAGCACTCAGGTC
# Construct (chain): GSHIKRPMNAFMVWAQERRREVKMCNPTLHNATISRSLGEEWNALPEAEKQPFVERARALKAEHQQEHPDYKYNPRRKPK
Oligonucleotide,relative binding energy [ln ratio]
CATCTAG,0.712
CATGGGG,0.988
TAAAGTT,0.372
TTGAGTT,0.912
TTAGGTT,0.668
CATCTAA,0.372
CATTGTA,-1.98
CAAGGTT,0.852
CTGCGTT,0.954
CATCAGG,0.819
CATTTCT,0.625
CTAAGTT,0.63
CAAAGTT,0.594
ACACGTT,-0.0522
GGTGGTT,0.962
GGGTGTT,0.634
CATCAGT,0.667
CATTGCC,0.953
CATATCT,0.538
CATGACC,0.726

# Sample 3
# Target: RING finger protein unkempt homolog, zinc fingers 1-6, GST-SBP tag (UNK, Homo sapiens, UniProt Q9C0B0, residues 30-357)
# Chain of UniProt Q9C0B0 (30-357, looked up): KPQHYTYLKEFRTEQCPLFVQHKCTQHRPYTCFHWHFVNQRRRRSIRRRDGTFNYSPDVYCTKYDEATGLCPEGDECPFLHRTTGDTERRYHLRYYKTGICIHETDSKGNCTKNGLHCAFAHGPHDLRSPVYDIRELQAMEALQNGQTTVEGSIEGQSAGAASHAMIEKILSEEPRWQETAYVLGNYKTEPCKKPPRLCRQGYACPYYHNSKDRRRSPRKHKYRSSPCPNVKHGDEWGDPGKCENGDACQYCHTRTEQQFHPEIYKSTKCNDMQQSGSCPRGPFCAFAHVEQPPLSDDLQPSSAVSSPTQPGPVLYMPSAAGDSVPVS
# Technique: RNA Bind-n-Seq
# Molecule type: RNA
# Medium: in vitro
# Tested at: not given
# Setting: RNA with constant flanks, ends assumed
# Baseline: input RNA pool
# Direction: higher = stronger binding
Oligonucleotide,bound/input enrichment
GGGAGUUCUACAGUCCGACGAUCUGAGACUGUAGUUGGGUGUCCCGGGUGCCCAUGGACUGCUUGAUGCUGCUUAACUCUUCAUUCCGAUAACUUUCUAGUGACAGCUUCUUCCAGUGGUGACAAAAUAGUGGUGUCAAGUUGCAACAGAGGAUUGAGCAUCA,0.441 ratio
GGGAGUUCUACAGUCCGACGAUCAAGUUUGGAUUUGAAAUUAGUUUUCCUGAAUUUUGUUUAAAGGGAGUCACACUUAAGAAUUUCCGUACUUCUAAUUUAAAUACUGACUUCCUUGCCAAAAAGAUCAUACCAUCAAAGGAUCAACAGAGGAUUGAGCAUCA,0.451 ratio
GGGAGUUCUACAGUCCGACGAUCCUUUUGAUUUCUUUUUCUUUUUUUCUCUUCUUGUUUUUGUUUUUCUUUUUUGUUUGUUUUUUCCGCAUGCAAAUAUGUUGGUACGUUAUGUCCUGGUUUAAAAGGAUUAAAAAUUUAAAACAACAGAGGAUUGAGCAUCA,0.808 ratio
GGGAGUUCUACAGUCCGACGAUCGCUGCAUACAUAGAAAAUGCCAAACAGGUUGGCCGCCUUGAGAAUGCAAUCGGUUGGUAUCACCGCCACCCUGGUUAUGGCUGCUGGCUCUCCGGGAUUGAUGUUAGUACACAGAUGCUGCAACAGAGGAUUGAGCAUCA,0.719 ratio
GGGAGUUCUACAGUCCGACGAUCAGAGAACAACACAUCCGGAGAGACAAAGCCACCAGCAACAUCUGCACGGCUCAGGCCCUUUCCGCCAACAUGGCUGCCAUGUUCGCCAUUUACCAUGGAUCCCAGGGGCUGAAGCACAUUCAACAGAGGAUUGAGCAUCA,0.134 ratio
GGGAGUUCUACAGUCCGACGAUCAUUUAAAAUUCCAGUAGUUAUAUUUAAUGAUCUCACCCCUGAGUUUCUUUUUCAUUAAAGCCGCUUUCAUUUCUAUUAUUCCAAUUUACUGAUAUGAACAAAUAGAAGGUCCGUGUGAGCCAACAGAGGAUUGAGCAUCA,10.4 ratio
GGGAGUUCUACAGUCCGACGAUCGUACUAUGUCAAAUCCUAUCUCAAUAAAUAGCAAUUCAUUUAACUCUCUUAGCUGCUUUUCCGGCCGAUAUGUCUUUGUGCCCACUUUAUACAAGAGGCAGCUAAAAGAGUAUAGCAGUACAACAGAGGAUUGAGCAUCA,12.4 ratio
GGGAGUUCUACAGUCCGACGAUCGUGCUAGAAAAUAAGGUCGUCUGGGAAAAGGACUGGAGACACAAGCGCAUCCAACCCCGGCCGCAAACUGAUGACUUUUCCGUGCUGAUUUCUUUCAACCUCGGUAUUUUCCCUUGGAUACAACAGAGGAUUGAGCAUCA,0.2 ratio

# Sample 4
# Target: Ras GTPase-activating protein-binding protein 1, full length (G3BP1, Homo sapiens, UniProt Q13283)
# Chain of UniProt Q13283 (whole entry, looked up): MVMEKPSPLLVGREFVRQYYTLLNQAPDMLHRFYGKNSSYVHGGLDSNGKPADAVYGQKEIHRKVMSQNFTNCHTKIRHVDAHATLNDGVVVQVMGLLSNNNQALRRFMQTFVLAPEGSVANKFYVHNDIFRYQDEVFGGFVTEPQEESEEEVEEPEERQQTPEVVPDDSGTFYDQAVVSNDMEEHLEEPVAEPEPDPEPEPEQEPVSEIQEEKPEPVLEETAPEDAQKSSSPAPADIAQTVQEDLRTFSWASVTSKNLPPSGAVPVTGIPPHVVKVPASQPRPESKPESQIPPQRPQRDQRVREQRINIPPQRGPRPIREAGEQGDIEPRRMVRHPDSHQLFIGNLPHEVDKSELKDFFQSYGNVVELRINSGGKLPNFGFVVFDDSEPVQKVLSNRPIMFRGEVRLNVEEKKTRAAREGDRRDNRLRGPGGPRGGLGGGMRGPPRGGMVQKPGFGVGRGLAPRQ
# Technique: RNA Bind-n-Seq
# Molecule type: RNA
# Medium: in vitro
# Tested at: 200 nM
# Setting: whole 134-nt RNA, ends assumed
# Added: 150 mM KCl
# Baseline: input library
# Direction: higher = stronger binding
Oligonucleotide,log2 enrichment
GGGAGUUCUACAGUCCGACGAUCUGCAUGUGCACUGAUAGGCCAAGGCCAGCUGAACCAGGCCAUGAAAAUCCUACAAAAAGCUGAAGGUUGGAAGUUUGUUAAACUUAUCUGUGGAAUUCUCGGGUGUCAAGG,-1.42
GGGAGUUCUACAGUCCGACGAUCAAGUCCUGUGCUACACAUCGUAUGUACCGAAUCGGUUUUUGGAAAAAAAGGAAAGGAAAGUAUUAUGUUACGCCGUUCGGAUCUGCACUUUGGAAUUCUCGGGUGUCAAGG,-1.39
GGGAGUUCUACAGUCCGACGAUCUGGGAGGUGGAUUUUGUUUAUUUUUUUAGCUCAUUUCCAGGGGUGGGAAUUUUUUUUUAAUAUGUGUCAUGAAUGAAGUUGUUUUUGAAAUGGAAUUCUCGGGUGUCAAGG,0.242
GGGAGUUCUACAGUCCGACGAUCCUGUGCUACACAUCGUAUGUACCGAAUCGGGCCCCCCCGGGGCCCCCCCGGGCCCCCCCGGGAAAGUAUUAUGUUACGCCGUUCGGAUCUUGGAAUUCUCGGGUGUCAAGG,-1.41
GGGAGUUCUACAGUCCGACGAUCUGGCCCUGGUGGCAUGCGGGGAGGAAGAGGUGGCCUCAUGGAUCGUGGUGGUCCCGGUGGAAUGUUCAGAGGUGGUCGUGGUGGAGACAGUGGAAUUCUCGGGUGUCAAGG,0.534
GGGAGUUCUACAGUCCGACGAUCCCUGUGCUACACAUCGUAUGUACCGAAUCAAAUUUUUAAAUUUUUUUAAACCCCCCCAAAAAAGUAUUAUGUUACGCCGUUCGGAUCUGCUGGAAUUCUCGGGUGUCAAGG,0.0312
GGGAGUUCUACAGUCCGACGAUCUUUCGGCUACCCCCAGUUCUUCUUUGCCAAAGCGUACACGUGAAGAGGAAGAGGAUAGCACCAUAGAAGCAUCAGACCAAGUCUCUGAUGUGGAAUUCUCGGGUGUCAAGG,-1.49
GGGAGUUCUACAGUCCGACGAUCCCUGUGCUACACAUCGUAUGUACCGAAUCGGUUUUUUUGGUUUUUUUGGGGUUUUUUUGGAAAGUAUUAUGUUACGCCGUUCGGAUCUGCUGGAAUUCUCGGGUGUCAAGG,-0.991
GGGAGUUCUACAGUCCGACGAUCCACAGACAACACGCACCCACACAGACACAGAGGGAAGGGAUUGGGAUGGGGACAGGGUGCACAGCAGGGCGGGGUAGGACCCCAGCCCCUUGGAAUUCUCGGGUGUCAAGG,1.91

# Other studies, line by line
Molecule,target,assay,system,conditions,scale,quantity,result
"PhoQ, residues 284 288 289 292 302 303 ASTSDA","PhoP, residues 12 14 15 18 19 TQAIL (Escherichia coli, UniProt P23836)","Sort-seq, refers to: YFP reporter",E. coli,"PhoQ-PhoP variant library, added: 10 µM Mg2+","baseline: high Mg2+ state, higher = stronger signaling",fold induction,12.4
